Results gathered from unrelated publications.
Lines come from different studies, so protocols differ. “And” joins repeats or separate records; there may be more than shown. ± marks the error that the study gave. Converted amounts (≈) assume the structure as drawn.

By UniProt entry, the sequences of proteins in these tests, tags left out.
UniProt Q9BWU1, whole entry: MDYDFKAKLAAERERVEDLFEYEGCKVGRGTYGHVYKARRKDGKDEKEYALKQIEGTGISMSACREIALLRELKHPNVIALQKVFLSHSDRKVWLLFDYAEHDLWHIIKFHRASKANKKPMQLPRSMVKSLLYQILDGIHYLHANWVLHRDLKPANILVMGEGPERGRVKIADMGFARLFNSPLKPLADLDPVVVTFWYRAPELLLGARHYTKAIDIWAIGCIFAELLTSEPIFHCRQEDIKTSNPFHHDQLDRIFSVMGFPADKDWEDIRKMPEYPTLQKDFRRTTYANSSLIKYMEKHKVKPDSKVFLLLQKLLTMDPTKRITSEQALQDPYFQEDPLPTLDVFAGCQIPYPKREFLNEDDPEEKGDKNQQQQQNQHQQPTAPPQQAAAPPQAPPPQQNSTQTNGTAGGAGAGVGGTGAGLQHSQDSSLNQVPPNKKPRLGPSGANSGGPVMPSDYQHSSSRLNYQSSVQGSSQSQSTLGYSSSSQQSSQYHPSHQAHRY

Cc1ccc(S(=O)(=O)N(C)CC(=O)N(Cc2ccc(C3CCCCC3)cc2)c2ccc(C(=O)O)c(O)c2)cc1  Stat3 Tyr705 phosphorylation (MDA-MB-231 xenograft, athymic nude mouse, tumour; intravenous, 3 mg/kg; reference: vehicle): decreased
CC(C)Cc1nnc2c(C(=O)NC3c4ccccc4-c4ccccc43)cccn12  MIC (Escherichia coli; broth microdilution; D21f2tolC rpoB H526D): 8 µg/mL (≈ 20.9 µM)
CC#C/C(=N\OC[C@H]1COCCN1)c1ccc2ncnc(Nc3ccc(OCc4cccc(F)c4)c(Cl)c3)c2c1  IC50 (MRC5; cell growth, WST-8; 72 h): 4.96 µM and ~5 µM
O=c1ccc2nc3ccc(OCC4(CO)COC4)cc3oc-2c1  MIC90 (Mycobacterium tuberculosis; mc2 6206 bedaquiline-resistant MmpL5 regulator mutant; 7 days): > 256 µM
CCN1CCN(Cc2ccc(NC(=O)c3ccc(C)c(/C=C/c4cnc5[nH]ccc5c4OC)c3)cc2C(F)(F)F)CC1  log2 fold change (CDK19 (Homo sapiens, UniProt Q9BWU1); inhibitor, cell-based kinome screen, item: CDC2L6; human cells; 5 µM; reference: vehicle): -0.07
COCCOc1ccc2nc3ccc(=O)c(Br)c-3oc2c1  MIC90 (Mycobacterium tuberculosis; mc2 6206 PA-824-resistant ddn mutant; 7 days): 29 µM (≈ 10.2 µg/mL)
CSc1nc(Cl)cc(Sc2nnc(-c3cc(C(F)(F)F)cc(C(F)(F)F)c3)[nH]2)n1  CFU reduction (Escherichia coli; MC4100; 25 µM, 2 h, 37 °C, added: PMBN 25 µg/mL): 6 log units
O=c1ccc2nc3ccc(OC4CCCC4)cc3oc-2c1  MIC90 (Mycobacterium tuberculosis; mc2 6206 bedaquiline-resistant MmpL5 regulator mutant; 7 days): 13 µM (≈ 3.66 µg/mL)
CCN(CC)C(=O)Oc1ccc(C(=O)Nc2cccc3cc[nH]c23)cc1  peak amplitude (NMDA receptor EPSC, inhibitor, whole-cell patch clamp; subthalamic nucleus neurons, rat, subthalamic nucleus slices; 10 µM; reference: control): 55 ± 3%
CCCCCCC1c2ccc(O)cc2Oc2cc(O)ccc21  MIC (Escherichia coli; MC4100; added: NAB7061 4 µg/mL): 1.2 µg/mL (≈ 4.02 µM)

Excerpt of the above:
CCN1CCN(Cc2ccc(NC(=O)c3ccc(C)c(/C=C/c4cnc5[nH]ccc5c4OC)c3)cc2C(F)(F)F)CC1  log2 fold change (CDK19 (Homo sapiens, UniProt Q9BWU1); inhibitor, cell-based kinome screen, item: CDC2L6; human cells; 5 µM; reference: vehicle): -0.07
